Assay results of several laboratories.
Every numbered part comes from another study and shows a few of its results, in no order. Changes are numbered by the printed parent chain.
Sequence of UniProt Q9BX84 (whole entry, looked up): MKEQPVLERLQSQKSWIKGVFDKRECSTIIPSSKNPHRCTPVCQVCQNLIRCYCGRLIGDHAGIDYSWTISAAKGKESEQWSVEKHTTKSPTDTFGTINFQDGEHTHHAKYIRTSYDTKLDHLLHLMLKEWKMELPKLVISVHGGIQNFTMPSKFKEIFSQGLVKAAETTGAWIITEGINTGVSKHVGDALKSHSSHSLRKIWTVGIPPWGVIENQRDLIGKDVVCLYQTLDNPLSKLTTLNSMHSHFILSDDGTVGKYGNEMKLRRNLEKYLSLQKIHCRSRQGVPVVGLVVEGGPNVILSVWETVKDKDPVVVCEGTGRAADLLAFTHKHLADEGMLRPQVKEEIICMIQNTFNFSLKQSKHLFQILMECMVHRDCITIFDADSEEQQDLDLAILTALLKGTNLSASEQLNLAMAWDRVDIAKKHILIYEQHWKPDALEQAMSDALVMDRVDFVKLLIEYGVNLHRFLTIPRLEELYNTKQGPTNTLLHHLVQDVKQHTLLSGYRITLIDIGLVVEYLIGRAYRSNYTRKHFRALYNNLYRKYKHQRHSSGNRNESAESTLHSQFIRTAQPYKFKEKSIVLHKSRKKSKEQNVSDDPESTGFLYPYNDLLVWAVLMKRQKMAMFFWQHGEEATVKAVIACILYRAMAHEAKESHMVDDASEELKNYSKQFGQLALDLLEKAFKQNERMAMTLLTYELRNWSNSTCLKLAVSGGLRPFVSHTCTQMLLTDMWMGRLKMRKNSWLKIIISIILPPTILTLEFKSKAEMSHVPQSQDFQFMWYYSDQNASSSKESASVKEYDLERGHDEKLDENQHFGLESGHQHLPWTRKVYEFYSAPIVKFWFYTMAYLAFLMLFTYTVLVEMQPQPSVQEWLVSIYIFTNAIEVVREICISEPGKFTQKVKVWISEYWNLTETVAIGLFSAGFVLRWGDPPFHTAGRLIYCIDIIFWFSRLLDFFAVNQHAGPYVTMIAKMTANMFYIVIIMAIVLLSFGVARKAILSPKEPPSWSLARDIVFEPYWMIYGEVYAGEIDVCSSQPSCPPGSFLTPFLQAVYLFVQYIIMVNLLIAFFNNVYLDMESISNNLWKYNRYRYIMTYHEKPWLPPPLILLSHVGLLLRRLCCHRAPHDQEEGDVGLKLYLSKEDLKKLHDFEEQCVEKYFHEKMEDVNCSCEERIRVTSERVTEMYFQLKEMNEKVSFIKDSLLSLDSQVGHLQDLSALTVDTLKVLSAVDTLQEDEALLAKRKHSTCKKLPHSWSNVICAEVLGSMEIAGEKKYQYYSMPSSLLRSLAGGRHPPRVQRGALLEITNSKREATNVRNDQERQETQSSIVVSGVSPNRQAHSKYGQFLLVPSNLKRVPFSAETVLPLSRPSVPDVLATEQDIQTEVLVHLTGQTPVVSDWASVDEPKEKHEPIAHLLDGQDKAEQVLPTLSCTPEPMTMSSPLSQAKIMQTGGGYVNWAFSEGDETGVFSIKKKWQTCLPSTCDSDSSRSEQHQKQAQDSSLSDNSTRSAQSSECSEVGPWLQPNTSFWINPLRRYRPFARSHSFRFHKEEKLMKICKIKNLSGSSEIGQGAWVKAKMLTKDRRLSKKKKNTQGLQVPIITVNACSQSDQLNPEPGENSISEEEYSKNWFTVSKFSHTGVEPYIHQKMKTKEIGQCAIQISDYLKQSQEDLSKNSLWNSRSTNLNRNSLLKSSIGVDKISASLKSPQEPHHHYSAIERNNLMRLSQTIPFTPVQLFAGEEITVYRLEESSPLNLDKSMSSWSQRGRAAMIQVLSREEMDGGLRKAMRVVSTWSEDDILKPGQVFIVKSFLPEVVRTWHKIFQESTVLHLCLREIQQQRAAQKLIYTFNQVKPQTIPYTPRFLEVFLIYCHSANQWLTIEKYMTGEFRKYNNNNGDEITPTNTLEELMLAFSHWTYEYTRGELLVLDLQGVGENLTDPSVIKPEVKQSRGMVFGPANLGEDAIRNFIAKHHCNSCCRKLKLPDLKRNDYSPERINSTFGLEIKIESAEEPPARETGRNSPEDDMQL
Sequence of UniProt O76039 (whole entry, looked up): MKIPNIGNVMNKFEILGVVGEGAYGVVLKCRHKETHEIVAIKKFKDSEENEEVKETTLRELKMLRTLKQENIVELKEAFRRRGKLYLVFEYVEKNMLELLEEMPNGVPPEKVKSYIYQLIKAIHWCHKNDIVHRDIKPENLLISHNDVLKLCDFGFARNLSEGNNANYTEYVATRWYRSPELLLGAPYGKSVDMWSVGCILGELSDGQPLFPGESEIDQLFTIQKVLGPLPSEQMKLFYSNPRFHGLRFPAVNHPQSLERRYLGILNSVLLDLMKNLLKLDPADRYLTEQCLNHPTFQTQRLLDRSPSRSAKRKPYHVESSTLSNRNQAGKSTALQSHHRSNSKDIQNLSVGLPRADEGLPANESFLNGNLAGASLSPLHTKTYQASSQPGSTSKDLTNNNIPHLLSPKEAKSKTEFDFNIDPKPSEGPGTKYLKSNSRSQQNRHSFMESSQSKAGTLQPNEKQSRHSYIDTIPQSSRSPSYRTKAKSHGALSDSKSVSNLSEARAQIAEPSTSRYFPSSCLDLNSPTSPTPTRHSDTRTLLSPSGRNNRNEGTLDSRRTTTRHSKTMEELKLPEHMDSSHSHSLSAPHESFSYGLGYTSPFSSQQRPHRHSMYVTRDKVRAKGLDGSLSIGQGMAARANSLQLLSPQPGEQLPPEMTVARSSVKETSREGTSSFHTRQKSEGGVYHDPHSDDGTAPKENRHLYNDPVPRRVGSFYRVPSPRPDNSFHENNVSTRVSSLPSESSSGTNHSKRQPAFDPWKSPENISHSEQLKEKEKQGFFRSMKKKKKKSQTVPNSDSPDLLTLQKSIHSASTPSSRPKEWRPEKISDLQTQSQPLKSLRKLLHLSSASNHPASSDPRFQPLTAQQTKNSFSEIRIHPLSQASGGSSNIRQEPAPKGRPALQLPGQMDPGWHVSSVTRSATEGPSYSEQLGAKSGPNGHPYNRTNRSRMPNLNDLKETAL
Sequence of UniProt P16234 (whole entry, looked up): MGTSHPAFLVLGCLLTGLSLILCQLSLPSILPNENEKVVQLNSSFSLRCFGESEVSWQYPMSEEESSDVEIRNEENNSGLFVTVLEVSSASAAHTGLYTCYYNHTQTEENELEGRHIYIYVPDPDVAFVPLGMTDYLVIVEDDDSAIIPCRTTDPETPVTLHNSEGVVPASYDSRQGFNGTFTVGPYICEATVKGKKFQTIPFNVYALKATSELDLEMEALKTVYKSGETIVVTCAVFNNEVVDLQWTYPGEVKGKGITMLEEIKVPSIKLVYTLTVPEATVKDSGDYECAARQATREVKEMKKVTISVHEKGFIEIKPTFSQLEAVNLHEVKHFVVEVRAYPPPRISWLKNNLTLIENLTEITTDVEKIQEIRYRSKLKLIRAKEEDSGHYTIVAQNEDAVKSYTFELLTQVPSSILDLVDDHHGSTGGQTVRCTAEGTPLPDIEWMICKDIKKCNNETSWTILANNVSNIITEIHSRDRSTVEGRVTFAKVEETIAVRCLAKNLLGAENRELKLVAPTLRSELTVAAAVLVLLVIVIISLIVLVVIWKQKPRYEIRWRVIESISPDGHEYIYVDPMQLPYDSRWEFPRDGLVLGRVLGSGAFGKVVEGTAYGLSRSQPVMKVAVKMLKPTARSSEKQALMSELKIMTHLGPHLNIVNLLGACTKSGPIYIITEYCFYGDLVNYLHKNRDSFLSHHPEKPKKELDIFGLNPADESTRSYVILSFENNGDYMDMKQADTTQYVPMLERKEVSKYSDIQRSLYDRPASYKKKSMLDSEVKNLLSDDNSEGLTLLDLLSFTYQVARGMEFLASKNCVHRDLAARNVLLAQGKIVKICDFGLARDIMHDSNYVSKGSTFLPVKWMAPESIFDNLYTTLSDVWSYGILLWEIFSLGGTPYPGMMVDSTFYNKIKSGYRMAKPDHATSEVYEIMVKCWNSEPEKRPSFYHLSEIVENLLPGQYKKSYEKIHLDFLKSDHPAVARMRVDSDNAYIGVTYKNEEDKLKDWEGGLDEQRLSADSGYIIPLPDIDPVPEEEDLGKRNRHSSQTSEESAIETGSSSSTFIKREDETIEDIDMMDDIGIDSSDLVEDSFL

Block 1
Target: CCNA2, cyclin fold, Cln2 fusion (human)
Technique: yeast growth competition, sequencing
Matrix: yeast
Notes: strong parent motif
Relative to: not given
Reading: higher = stronger binding
Starting sequence: PKN2 docking peptide (human); VSAVQKLDFSDTM; partner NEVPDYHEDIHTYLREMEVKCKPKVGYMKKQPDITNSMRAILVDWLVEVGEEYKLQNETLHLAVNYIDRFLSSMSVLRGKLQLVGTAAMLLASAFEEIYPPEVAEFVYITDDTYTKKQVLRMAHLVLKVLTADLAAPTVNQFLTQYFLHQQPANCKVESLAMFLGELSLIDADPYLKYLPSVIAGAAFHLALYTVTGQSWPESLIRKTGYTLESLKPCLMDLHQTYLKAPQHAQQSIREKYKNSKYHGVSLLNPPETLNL
`V1T` — result for “normalised enrichment score”: 2.26.
Under “normalised enrichment score”, `S10F` is recorded as 1.09.
`D11V`: “normalised enrichment score” 1.74.
`M13H`: “normalised enrichment score” 2.09.
`K6D`: “normalised enrichment score” -0.173.
`S2D` — result for “normalised enrichment score”: 0.235.
Under “normalised enrichment score”, `M13F` is recorded as 1.28.
For `D8G`, “normalised enrichment score” read -0.449.

Block 2
Target: RING finger protein unkempt homolog, zinc fingers 1-6, GST-SBP tag (UNK, Homo sapiens, UniProt Q9C0B0, residues 30-357)
Sequence of UniProt Q9C0B0 (30-357, looked up): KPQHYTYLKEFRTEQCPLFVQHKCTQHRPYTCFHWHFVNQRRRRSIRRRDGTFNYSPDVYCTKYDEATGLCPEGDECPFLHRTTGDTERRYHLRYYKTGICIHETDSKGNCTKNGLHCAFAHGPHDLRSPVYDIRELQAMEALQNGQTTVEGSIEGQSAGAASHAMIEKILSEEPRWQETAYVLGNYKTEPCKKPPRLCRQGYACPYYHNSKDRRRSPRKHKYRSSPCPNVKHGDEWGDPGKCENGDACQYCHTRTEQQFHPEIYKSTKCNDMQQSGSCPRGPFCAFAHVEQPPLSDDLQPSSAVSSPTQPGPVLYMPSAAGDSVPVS
Technique: RNA Bind-n-Seq
Molecule type: RNA
Matrix: in vitro
Tested at: not given
Notes: RNA with constant flanks, human-mouse chimeric sites, ends assumed
Relative to: input RNA pool
Reading: higher = stronger binding
`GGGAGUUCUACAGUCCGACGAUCAAAGAACUACUGAGGCAAGGCAGCAAAUUUAGAAGAAACAUUUCAACACUAUUAAUAGAGUUAGGAUUCCAAAUUAAAAAGAAAACUAAGACAUUAUACAUCAACAAAGCCAAUGUGUGGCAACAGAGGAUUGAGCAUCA` gave a bound/input enrichment of 24.5 ratio.
`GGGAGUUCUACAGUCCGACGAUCCACAGAGGCACCACCCCCCCCUCCUCCUUUCCACACCUGCAAACUCUUUUACUUGGGCUGAAUAUUUAGUGUAAUUACAUCUCAGCUUUGAGGGCUCCUGUGGCAAAUUCCCGGAUUAAACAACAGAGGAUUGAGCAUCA` has a bound/input enrichment of 1.87 ratio.
The bound/input enrichment of `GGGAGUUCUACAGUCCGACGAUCAAAGAGAAAGCUAAAACACUAAUAGAGAAGAGGAUUGGCAAAGAGAAAUUUCAUAGAAAACUAGGAUUUAUUAGCAAACAUGAGUUAUAUUCCAGAGCGUCUCAGAAACCCCAGCCAAACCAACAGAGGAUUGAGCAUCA` is reported as 11.9 ratio.
With `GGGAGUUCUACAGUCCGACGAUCGGGGAGAAACCUUACGAGUGUGUGCAGUGUGGGAAAUCCUACAGUCAGAGCUCAAACCUCUUCAGACAUCAGAGACGACACAAUGCAGAAAAACUUCUGAAUGUUGUGAAAGUUUAAGAACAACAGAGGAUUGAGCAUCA` the bound/input enrichment was 0.124 ratio.
`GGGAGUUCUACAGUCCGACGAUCUGGCGCCUGCGCUCCCCACUCGUGUUUGUAUUUUUAUUUUUAUAAGACAUGUGUAUUUACAAUUGAGCUUUUGUUACAUAAUGCUGAAAUGCUACUGGAGAUUAUGAAAAAUGUUUCAAUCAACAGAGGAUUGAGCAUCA` has a bound/input enrichment of 0.265 ratio.
The bound/input enrichment of `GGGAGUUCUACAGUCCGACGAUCAACUUUGUACAUAGAUUUCCCUUUGUAGCUGUUUCAAUUGGCUUCCUUGUGAAUAAAGAGAUGGAGUUUGGAAUUGUGUACAGCUGUGUGGAAGAUAAGAUGUACACCGGCAGGAAAGGGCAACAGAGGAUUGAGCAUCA` is reported as 0.787 ratio.
`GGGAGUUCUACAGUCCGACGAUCGGAAGUACAAUGAUGGAAAUAGAUGGCGACAAAGGCAAGCAGGGCGGGCCCACCUACUACAUAGACACCAAUGCCCUCCGCGUGCCCAGGGAGAAUAUGGAGGCCAUCUCACCACUCAAGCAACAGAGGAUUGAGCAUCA` has a bound/input enrichment of 0.221 ratio.
The bound/input enrichment of `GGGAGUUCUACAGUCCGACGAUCAAUGUUCUUAAUAUUUUUGAAUAAAUGAAGCUAAAAUGUCUGCUUUUGGUACAACACGCAUUAAUAAAAGGUUAAGUAAGUUUUGUUACUGAAGUACUAUUUAACAUCUCAGAAAAAAACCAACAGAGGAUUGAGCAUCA` is reported as 0.183 ratio.

Block 3
Compound: Cc1c(NC(=O)c2cc(C(N)=O)nc3cc(F)ccc23)c(C(F)(F)F)nn1Cc1ccc(C#N)cc1
Technique: competition with immobilised ligand
Tested at: 1 µM
For CAMK1D (Homo sapiens, UniProt Q8IU85); cell-free assay: remaining binding read 100%.
The remaining binding was 88% (DYRK2 (Homo sapiens, UniProt Q92630); cell-free assay).
For PDGFRA (Homo sapiens, UniProt P16234); cell-free assay: remaining binding read 73%.
It gave 100% for remaining binding (ACVRL1 (Homo sapiens, UniProt P37023); binding).
It gave 89% for remaining binding (STK32A (Homo sapiens, UniProt Q8WU08); binding).
It gave 92% for remaining binding (IKBKB (Homo sapiens, UniProt O14920); cell-free assay).
MAPK8 (Homo sapiens, UniProt P45983); cell-free assay — remaining binding: 80%.
TESK1 (Homo sapiens, UniProt Q15569); cell-free assay — remaining binding: 93%.
For TLK2 (Homo sapiens, UniProt Q86UE8); cell-free assay: remaining binding read 100%.
For MARK1 (Homo sapiens, UniProt Q9P0L2); cell-free assay: remaining binding read 100%.
The remaining binding was 73% (CHEK2 (Homo sapiens, UniProt O96017); cell-free assay).
It gave 100% for remaining binding (CSNK1G3 (Homo sapiens, UniProt Q9Y6M4); cell-free assay).
It gave 87% for remaining binding (TRPM6 (Homo sapiens, UniProt Q9BX84); cell-free assay).
CDKL5 (Homo sapiens, UniProt O76039); binding — remaining binding: 77%.
The remaining binding was 78% (PIK3CA (Homo sapiens, UniProt P42336, I800L); cell-free assay).
For Ribosomal protein S6 kinase alpha-6, N-terminal kinase domain (RPS6KA6, Homo sapiens, UniProt Q9UK32); cell-free assay: remaining binding read 78%.
Tyrosine-protein kinase ABL1, non-phosphorylated (ABL1, Homo sapiens, UniProt P00519, F317I); binding — remaining binding: 96%.

Block 4
Structure (SMILES): C[C@@H](N)[C@H]1CC[C@H](C(=O)Nc2ccncc2)CC1
Observed: enzyme activity
Mode: inhibitor
Tested at: 0.5 µM
Relative to: control
CAMK2D (Homo sapiens, UniProt Q13557) — remaining activity: 90.1%.
Protein kinase C beta type, isoform beta-I (PRKCB, Homo sapiens, UniProt P05771) — remaining activity: 101%.
It gave 91.2% for remaining activity (STK11 (Homo sapiens, UniProt Q15831)).
For DAPK1 (Homo sapiens, UniProt P53355): remaining activity read 103%.
The remaining activity was 97.8% (PRKCA (Homo sapiens, UniProt P17252)).

Some of these lines once more (block 3):
It gave 89% for remaining binding (STK32A (Homo sapiens, UniProt Q8WU08); binding).
It gave 92% for remaining binding (IKBKB (Homo sapiens, UniProt O14920); cell-free assay).
MAPK8 (Homo sapiens, UniProt P45983); cell-free assay — remaining binding: 80%.
